Results from different studies.
Protocols differ between the studies behind these lines. Several values in a cell are separate wells, animals, samples, runs or records. Numbers after ± are the reported error.
Nicotinamide N-methyltransferase SAM-bound: Nicotinamide N-methyltransferase, SAM-bound (Rattus norvegicus, UniProt A0ABK0M0V0)
CP: CP (Tobacco mosaic virus, UniProt P69687)
UniProt P69687, sequence (whole entry, looked up): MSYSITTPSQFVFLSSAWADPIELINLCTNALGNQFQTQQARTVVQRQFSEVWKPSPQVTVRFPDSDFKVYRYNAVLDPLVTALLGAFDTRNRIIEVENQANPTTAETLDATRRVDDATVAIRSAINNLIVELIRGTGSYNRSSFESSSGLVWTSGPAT
folP: Dihydropteroate synthase (folP, Bacteria, UniProt P0AC13)
UniProt P0AC13, sequence (whole entry, looked up): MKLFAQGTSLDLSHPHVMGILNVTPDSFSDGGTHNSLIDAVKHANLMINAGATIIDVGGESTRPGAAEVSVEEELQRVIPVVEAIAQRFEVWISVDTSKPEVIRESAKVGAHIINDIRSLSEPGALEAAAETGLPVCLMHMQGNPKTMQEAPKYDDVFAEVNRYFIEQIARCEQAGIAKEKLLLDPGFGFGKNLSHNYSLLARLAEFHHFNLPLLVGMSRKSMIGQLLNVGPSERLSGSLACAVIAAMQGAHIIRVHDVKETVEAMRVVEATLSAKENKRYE
ALB: Albumin (ALB, Homo sapiens, UniProt P02768)
UniProt O94900, sequence (whole entry, looked up): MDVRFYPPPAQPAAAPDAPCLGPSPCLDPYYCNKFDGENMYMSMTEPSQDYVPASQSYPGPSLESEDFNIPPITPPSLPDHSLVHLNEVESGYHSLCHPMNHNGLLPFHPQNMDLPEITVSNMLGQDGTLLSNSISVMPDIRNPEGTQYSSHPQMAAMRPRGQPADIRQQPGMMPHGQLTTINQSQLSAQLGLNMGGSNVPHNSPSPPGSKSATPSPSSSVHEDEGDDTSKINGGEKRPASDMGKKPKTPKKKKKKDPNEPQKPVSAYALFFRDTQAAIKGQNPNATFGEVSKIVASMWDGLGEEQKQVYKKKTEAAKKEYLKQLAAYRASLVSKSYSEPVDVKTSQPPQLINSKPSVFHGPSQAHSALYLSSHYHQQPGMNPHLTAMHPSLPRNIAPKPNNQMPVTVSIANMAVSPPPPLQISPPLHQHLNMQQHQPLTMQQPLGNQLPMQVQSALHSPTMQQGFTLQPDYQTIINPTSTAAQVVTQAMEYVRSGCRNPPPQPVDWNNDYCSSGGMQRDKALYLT
UniProt Q16881, sequence (whole entry, looked up): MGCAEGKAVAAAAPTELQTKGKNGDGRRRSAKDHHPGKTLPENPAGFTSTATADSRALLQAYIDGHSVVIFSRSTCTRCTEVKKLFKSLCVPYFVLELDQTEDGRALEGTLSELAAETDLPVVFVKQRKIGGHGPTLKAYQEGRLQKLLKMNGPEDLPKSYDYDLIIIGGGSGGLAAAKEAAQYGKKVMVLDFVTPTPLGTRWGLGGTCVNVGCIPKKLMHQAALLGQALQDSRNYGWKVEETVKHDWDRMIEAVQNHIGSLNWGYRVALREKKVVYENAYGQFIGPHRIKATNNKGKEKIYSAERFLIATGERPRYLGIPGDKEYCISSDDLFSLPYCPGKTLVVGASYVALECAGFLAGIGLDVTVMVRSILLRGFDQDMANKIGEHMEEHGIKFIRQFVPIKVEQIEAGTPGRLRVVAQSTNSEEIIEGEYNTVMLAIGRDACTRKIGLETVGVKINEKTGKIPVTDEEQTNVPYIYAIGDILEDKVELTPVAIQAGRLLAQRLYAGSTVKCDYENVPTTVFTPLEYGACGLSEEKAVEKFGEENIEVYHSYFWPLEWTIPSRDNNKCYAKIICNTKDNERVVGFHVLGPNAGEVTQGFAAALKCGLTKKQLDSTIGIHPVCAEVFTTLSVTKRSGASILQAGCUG
UniProt Q13526, sequence (whole entry, looked up): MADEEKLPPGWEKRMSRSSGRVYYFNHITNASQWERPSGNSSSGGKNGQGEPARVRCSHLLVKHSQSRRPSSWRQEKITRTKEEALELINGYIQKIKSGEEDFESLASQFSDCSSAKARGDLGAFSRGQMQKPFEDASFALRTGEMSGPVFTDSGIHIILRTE
UniProt P39748, sequence (whole entry, unmodified, looked up): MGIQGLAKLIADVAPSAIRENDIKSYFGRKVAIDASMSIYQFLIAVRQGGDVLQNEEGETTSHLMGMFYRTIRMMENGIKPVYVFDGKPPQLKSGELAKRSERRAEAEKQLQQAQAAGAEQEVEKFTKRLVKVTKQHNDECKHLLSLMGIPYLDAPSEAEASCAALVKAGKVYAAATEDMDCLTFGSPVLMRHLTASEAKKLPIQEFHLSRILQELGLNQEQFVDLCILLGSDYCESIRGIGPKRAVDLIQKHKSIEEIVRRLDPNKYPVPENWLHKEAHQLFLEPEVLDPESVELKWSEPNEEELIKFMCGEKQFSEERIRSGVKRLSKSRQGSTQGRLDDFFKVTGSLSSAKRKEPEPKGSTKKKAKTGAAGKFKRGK
UniProt P54941, sequence (whole entry, looked up): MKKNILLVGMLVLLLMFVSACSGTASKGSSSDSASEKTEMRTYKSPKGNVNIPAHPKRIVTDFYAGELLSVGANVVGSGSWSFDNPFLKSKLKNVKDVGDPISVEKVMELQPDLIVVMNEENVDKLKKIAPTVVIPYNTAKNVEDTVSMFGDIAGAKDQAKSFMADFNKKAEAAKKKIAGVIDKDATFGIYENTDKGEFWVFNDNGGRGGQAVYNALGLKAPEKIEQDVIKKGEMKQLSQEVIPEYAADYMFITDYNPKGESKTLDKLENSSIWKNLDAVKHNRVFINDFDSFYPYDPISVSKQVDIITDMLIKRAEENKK
UniProt Q9Y6M5, sequence (whole entry, looked up): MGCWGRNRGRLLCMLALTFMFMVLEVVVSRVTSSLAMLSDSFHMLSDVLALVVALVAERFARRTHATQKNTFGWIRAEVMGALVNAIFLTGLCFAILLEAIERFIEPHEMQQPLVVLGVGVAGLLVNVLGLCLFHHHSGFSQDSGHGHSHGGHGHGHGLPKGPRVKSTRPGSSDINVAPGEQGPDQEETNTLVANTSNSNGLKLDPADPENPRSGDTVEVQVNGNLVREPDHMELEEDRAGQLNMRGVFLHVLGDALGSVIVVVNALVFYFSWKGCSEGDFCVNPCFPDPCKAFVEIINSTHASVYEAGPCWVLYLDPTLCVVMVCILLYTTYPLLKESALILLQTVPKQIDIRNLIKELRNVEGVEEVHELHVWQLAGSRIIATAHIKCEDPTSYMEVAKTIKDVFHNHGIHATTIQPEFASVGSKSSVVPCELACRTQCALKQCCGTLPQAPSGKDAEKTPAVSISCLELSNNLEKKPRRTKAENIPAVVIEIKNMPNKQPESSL
UniProt P30048, sequence (whole entry, looked up): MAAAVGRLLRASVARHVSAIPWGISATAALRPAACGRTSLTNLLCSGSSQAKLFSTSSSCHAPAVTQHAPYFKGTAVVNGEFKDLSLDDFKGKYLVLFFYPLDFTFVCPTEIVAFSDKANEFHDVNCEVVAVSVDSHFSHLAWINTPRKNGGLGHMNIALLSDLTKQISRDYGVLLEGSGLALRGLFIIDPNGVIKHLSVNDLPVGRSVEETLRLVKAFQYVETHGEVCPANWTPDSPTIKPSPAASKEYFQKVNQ
UniProt Q9UJS0, sequence (whole entry, looked up): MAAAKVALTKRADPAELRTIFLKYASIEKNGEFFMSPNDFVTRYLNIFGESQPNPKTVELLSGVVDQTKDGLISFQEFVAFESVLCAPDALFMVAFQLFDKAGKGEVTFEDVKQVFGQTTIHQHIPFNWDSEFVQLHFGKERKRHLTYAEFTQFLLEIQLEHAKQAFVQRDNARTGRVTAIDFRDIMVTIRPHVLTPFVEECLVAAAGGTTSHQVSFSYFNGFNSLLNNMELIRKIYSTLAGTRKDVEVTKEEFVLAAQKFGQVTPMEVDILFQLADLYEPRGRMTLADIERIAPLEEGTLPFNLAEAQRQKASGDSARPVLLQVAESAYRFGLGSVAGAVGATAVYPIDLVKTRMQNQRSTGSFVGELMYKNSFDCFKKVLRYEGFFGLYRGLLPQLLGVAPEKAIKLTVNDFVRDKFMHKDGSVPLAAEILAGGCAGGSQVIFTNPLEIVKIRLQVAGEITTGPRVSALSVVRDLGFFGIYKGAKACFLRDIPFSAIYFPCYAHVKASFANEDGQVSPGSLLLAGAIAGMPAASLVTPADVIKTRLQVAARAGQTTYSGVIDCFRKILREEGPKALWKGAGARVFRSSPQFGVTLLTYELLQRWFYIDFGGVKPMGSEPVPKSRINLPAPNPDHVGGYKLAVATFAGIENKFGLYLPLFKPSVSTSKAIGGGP
UniProt P51686, sequence (whole entry, looked up): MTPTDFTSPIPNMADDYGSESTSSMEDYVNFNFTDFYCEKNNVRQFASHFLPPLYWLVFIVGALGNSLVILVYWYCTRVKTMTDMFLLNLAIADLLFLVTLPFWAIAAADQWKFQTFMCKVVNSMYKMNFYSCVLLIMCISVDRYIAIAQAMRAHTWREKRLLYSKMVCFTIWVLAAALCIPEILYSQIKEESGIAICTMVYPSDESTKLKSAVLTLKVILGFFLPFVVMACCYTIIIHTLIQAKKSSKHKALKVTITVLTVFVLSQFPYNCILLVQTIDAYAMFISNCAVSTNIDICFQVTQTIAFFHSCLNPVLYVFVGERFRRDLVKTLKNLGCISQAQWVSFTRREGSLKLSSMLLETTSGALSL

Cn1ncc2cc(-c3cncc(Cl)c3N3CCC4(CCNC4=O)CC3)ccc21  Kd (CCNC human; SILAC competition; LS174T-L5 lysate): 0.015 µM
CNc1cc(N)c(C(N)=O)cn1  Kd (Nicotinamide N-methyltransferase SAM-bound; substrate, SPR; 37 °C, added: SAM): 2 µM
C=CC(=O)N1CC2(CCN(c3nc(OC4CCN(CCCOC)CC4)nc4c(OCC(F)(F)F)c(-c5c(C)ccc6[nH]ncc56)c(C5CC5)cc34)CC2)C1  Kd (GTPase KRas, GDP-bound (KRAS, Homo sapiens, UniProt P01116); microscale thermophoresis): 2.72 ± 1 µM
CCSC(SCC)c1ccc(OCCNS(=O)(=O)c2ccc(C)cc2)c(Cl)c1  Kd (CP; binding, MST): 66.1 µM
CCOC(=O)Cc1n[nH]c2nc(N)[nH]c(=O)c2c1=O  Kd (folP; binding, SPR): 0.0321 µM
CCCCCCCCCCCCCCOc1c(O)cc(C(=O)O[C@@H]2Cc3c(O)cc(O)cc3O[C@@H]2c2cc(O)c(O)c(O)c2)cc1O  Kd (ALB; tryptophan fluorescence quenching): 1.27 µM
CC[C@H](C)[C@H](N)C1=N[C@H](C(=O)N[C@@H](CC(C)C)C(=O)N[C@H](CCC(=O)O)C(=O)N[C@H](C(=O)N[C@H]2CCCCNC(=O)[C@H](CC(N)=O)NC(=O)[C@@H](CC(=O)O)NC(=O)[C@H](Cc3c[nH]cn3)NC(=O)[C@@H](Cc3ccccc3)NC(=O)[C@H]([C@@H](C)CC)NC(=O)[C@@H](CCCN)NC2=O)[C@@H](C)CC)CS1  Kd (undecaprenyl pyrophosphate; binding, isothermal titration calorimetry; phosphatidylcholine lipid vesicles; pH 7.5, 25 °C, 0.3 mM zinc sulfate): 0.0255 ± 0.00701 µM
O=c1c2sccc2n(CC2COc3ccccc3O2)c(=O)n1O (centres unmarked)  Kd (Flap endonuclease 1 (Homo sapiens, UniProt P39748, R100A); ITC; pH 7.5, 25 °C, added: 8 mM Mg2+): 0.117 µM
CC(=O)N(O)CCCCCNC(=O)CCC(=O)N(O)CCCCCNC(=O)CCC(=O)N(O)CCCCCNc1ccc([N+](=O)[O-])c2nonc12  Kd (Iron(3+)-hydroxamate-binding protein YxeB (yxeB, Bacillus subtilis, UniProt P54941); binding, Trp fluorescence quenching; pH 7.4, added: yxeB 100 nM): 0.048 ± 0.024 µM
NCCCC[C@H](NC(=O)[C@H](C/C=C/C[C@H](NC(=O)[C@@H]1CCCN1)C(=O)N[C@@H](CCCCN)C(=O)NCCCN)NC(=O)[C@@H]1CCCN1)C(=O)NCCCN  Kd ((CAG)10 RNA; SPR): 0.352 µM
CN(C)c1ccc2c(-c3ccc(C(=O)NCCOCCOCCOCCn4cc(COc5cc(C(=O)c6cc(Cl)ccc6NS(=O)(=O)c6ccc(C(C)(C)C)cc6)cc[n+]5[O-])nn4)cc3C(=O)[O-])c3ccc(=[N+](C)C)cc-3oc2c1  Kd (CCR9 (Homo sapiens, UniProt P51686); binder, NanoBRET; HEK293T): 0.0474 ± 0.0045 µM
Cc1c[nH]c2nccc(-c3ccc(C(=O)N[C@@H]4c5c(F)cc(C(F)F)cc5C[C@@H]4O)cn3)c12  Kd (Ribosomal protein S6 kinase alpha-6, N-terminal kinase domain (RPS6KA6, Homo sapiens, UniProt Q9UK32); binding, competition with immobilised ligand): 0.245 µM
CCn1cnc2c(Oc3ccc(/C=C/C(=O)c4ccc(NS(=O)(=O)c5ccccc5C)cc4)cc3)ncnc21  Kd (CP; binding, MST): 13.7 µM
CC1(C)CC[C@]2(C(=O)O[C@@H]3O[C@H](CO)[C@@H](O)[C@H](O)[C@H]3O)CC[C@]3(C)C(=CC[C@@H]4[C@@]5(C)CC[C@H](O[C@@H]6O[C@H](C(=O)O)[C@@H](O)[C@H](O)[C@H]6O[C@@H]6O[C@H](CO)[C@@H](O)[C@H](O)[C@H]6O)C(C)(C)[C@@H]5CC[C@]43C)[C@@H]2C1  Kd (SLC30A1 (Homo sapiens, UniProt Q9Y6M5); binding): 28.9 µM
COc1ccc(C(N)=O)cn1  Kd (Nicotinamide N-methyltransferase SAM-bound; substrate, SPR; 37 °C, added: SAM): 50.1 µM
O=C(CCCCCNC(=S)Nc1ccc2c(c1)C(=O)OC21c2ccc(O)cc2Oc2cc(O)ccc21)N[C@@H](Cc1c[nH]c2ccccc12)C(=O)N[C@@H](Cc1c[nH]c2ccccc12)C(=O)N[C@@H](Cc1c[nH]c2ccccc12)C(=O)N[C@@H](Cc1c[nH]c2ccccc12)C(=O)N[C@@H](Cc1c[nH]c2ccccc12)C(=O)N[C@@H](Cc1c[nH]c2ccccc12)C(=O)N[C@@H](Cc1c[nH]c2ccccc12)C(=O)N[C@@H](Cc1c[nH]c2ccccc12)C(=O)O  Kd (G8; binding, fluorescence intensity probability; streptavidin-coated polystyrene microbeads): 0.000118 µM
Cc1nn(C)c2nc(N)[nH]c(=O)c2c1=O  Kd (folP; binding, SPR): 0.0049 µM
O=C(O)CCC(NC(=O)NC(CCCCNC(=O)C(Cc1ccc2ccccc2c1)NC(=O)C1CCC(CNC(=O)CCCCCNC(=S)Nc2ccc3c(c2)C(=O)OC32c3ccc(O)cc3Oc3cc(O)ccc32)CC1)C(=O)O)C(=O)O (centres unmarked)  Kd (N-acetylated-alpha-linked acidic dipeptidase 2 (Homo sapiens, UniProt Q9Y3Q0); cell-free assay, FP): 0.00112 µM
C[C@H](CCC(=O)NCCS(=O)(=O)O)[C@H]1CC[C@H]2[C@@H]3CC[C@@H]4C[C@H](OS(=O)(=O)O)CC[C@]4(C)[C@H]3CC[C@]12C  Kd (SLC25A13 (Homo sapiens, UniProt Q9UJS0); isothermal titration calorimetry; vesicles): 109 ± 1e+06 µM
C/C=C(\C=O)[C@@H]1C[C@H]2c3[nH]c4ccccc4c3CCN2C=C1C(=O)OC  Kd (PRDX3 (Homo sapiens, UniProt P30048); binding, SPR): 0.608 µM
COc1ccc2[nH]cc(CCNC(=O)c3nnc(-c4cccc(Br)c4)o3)c2c1  Kd (VSIR (Homo sapiens, UniProt Q9H7M9); binding, MST): 1.33 µM
CC(C(=O)O)c1nn(C)c2nc(N)[nH]c(=O)c2c1=O (centres unmarked)  Kd (folP; binding, SPR): 0.0035 µM
O=C(O)CCC(=O)C(=O)O  Kd (Uncharacterized protein (Pelagibacter ubique, UniProt Q4FKX4); isothermal titration calorimetry; Candidatus Pelagibacter ubique; one-set-of-sites model): 0.0077 ± 0.0014 µM
Cn1nc(CCC(=O)O)c(=O)c2c(=O)[nH]c(N)nc21  Kd (folP; binding, SPR): 0.00727 µM
CC(C)[C@H](NC(=O)[C@@H]1CCCN1C(=O)[C@@H](NC(=O)[C@H](CCCNC(=N)N)NC(=O)[C@@H]1CCCN1C(=O)[C@@H](NC(=O)OCC1c2ccccc2-c2ccccc21)C(C)C)[C@@H](C)OP(=O)(O)O)C(=O)NCC(=O)NCC(=O)NCC(=O)N[C@@H](CCCCN)C(N)=O  Kd (Peptidyl-prolyl cis-trans isomerase NIMA-interacting 1, WW domain (PIN1, Homo sapiens, UniProt Q13526); binding, competitive ELISA; pH 7.3): 36 ± 4 µM
CN1CCN(c2ccc3[nH]c(-c4ccc5[nH]c(-c6ccc(OCCCCNC(=O)c7cccc8c7C(=O)OC87c8ccc(N(C)C)cc8C(C)(C)c8cc(N(C)C)ccc87)cc6)nc5c4)nc3c2)CC1  Kd (hairpin DNA; binding, fluorescence titration; PBS; 1 h, room temperature): 1.3 ± 0.1 µM
O=c1cc(-c2ccccc2)oc2c(OCCCCN3CCCC3)c(OCc3ccccc3)cc(O)c12  Kd (TXNRD1 (Homo sapiens, UniProt Q16881); binding, MST): 8.8 µM
Cn1nc(CO)c(=O)c2c(=O)[nH]c(N)nc21  Kd (folP; binding, SPR): 0.0189 µM
CC[C@H](C)[C@H](NC(=O)[C@@H](NC(=O)[C@H](CO)NC(=O)[C@@H](NC(=O)[C@@H]1CCCN1C(=O)[C@H](CC(C)C)NC(=O)[C@H](CCCNC(=N)N)NC(=O)[C@H](CO)NC(=O)[C@H](CC(N)=O)NC(=O)[C@H](C)N)[C@@H](C)O)[C@@H](C)CC)C(=O)O  Kd (NHERF1 (Homo sapiens, UniProt O14745); binding, FP): > 1000 µM
COC(=O)CC(C)c1n[nH]c2nc(N)[nH]c(=O)c2c1=O (centres unmarked)  Kd (folP; binding, SPR): 0.619 µM
Cn1c(=O)n(C2CCC(=O)NC2=O)c2ccc(C3CCN(CC(=O)Nc4cccc(CS(=O)(=O)N5CC[C@H](Nc6cccc(-c7sc(C(=O)O)c(OCC(=O)O)c7Cl)c6)CC5(C)C)c4)CC3)cc21 (some centres unmarked)  Kd (PTPN1 (Homo sapiens, UniProt P18031); binding, BLI): 0.034 µM
CCc1nc2cc3ccccc3cc2cc1C(=O)N1CCC[C@H]1C(=O)N[C@@H](C/C=C/C[C@H](NC(=O)[C@@H]1CCCN1C(=O)c1cc2cc3ccccc3cc2nc1CC)C(=O)N[C@@H](CCCCN)C(=O)NCCCN)C(=O)N[C@@H](CCCCN)C(=O)NCCCN  Kd ((CAG)10 RNA; SPR): 0.045 µM
CC(CC(=O)O)c1nn(C)c2nc(N)[nH]c(=O)c2c1=O (centres unmarked)  Kd (folP; binding, SPR): 0.0163 µM
C=CC(=O)N1C[C@H](C)N(c2nc(OC[C@@]34CCCN3C[C@H](F)C4)nc3c(F)c(-c4ccc(F)c5sc(N)c(C#N)c45)c(C(F)(F)F)cc23)C[C@H]1C  Kd (GTPase KRas, GppNHp-bound (KRAS, Homo sapiens, UniProt P01116, Q61R)): 85.1 µM and 78.2 µM
CSCC[C@H](NC(=O)[C@@H](NC(=O)[C@@H]1CCCN1C(=O)[C@H](Cc1c[nH]cn1)NC(=O)[C@H](CO)NC(=O)[C@H](CCC(N)=O)NC(=O)[C@H](CO)NC(C)=O)C(C)C)C(=O)N[C@@H](CCCCN)C(=O)N[C@@H](C)C(=O)N[C@@H](Cc1ccccc1)C(=O)N[C@@H](CS)C(=O)NCC(=O)N[C@@H](CC(C)C)C(=O)N[C@@H](CC(C)C)C(=O)N[C@@H](CC(C)C)C(=O)N[C@@H](CCC(N)=O)C(=O)N[C@@H](CO)C(=O)N[C@@H](CO)C(N)=O  Kd (Calmodulin-1, Ca2+-free (CALM1, Homo sapiens, UniProt P0DP23); binding to apo-calmodulin, NMR titration; pH 7.4, 25 °C, added: EGTA 10 mM): > 800 µM
CCc1nc2cc3ccccc3cc2cc1C(=O)N[C@@H](CCCCN)C(=O)N[C@@H](C/C=C\C[C@H](NC(=O)[C@H](CCCCN)NC(=O)c1cc2cc3ccccc3cc2nc1CC)C(=O)N1CCC[C@H]1C(=O)NCCCN)C(=O)N1CCC[C@H]1C(=O)NCCCN  Kd ((CAG)10 RNA; SPR): 0.504 µM
N#Cc1c(N)nc2c(c1-c1ccc(CO)o1)Cc1cc(O)ccc1-2  Kd (Thymocyte selection-associated high mobility group box protein TOX (Homo sapiens, UniProt O94900); SPR): 0.92 µM and 0.922 µM
CC1=CC(/C=C/c2ccc3c(ccn3C)c2)=[N+]2C1=Cc1cccn1[B-]2(F)F  Kd (ALB; binding, fluorescence titration; PBS; 30 min, pH 7.08, added: BODIPY dye): 5.8 ± 0.8 µM

Excerpt of the above:
CN(C)c1ccc2c(-c3ccc(C(=O)NCCOCCOCCOCCn4cc(COc5cc(C(=O)c6cc(Cl)ccc6NS(=O)(=O)c6ccc(C(C)(C)C)cc6)cc[n+]5[O-])nn4)cc3C(=O)[O-])c3ccc(=[N+](C)C)cc-3oc2c1  Kd (CCR9 (Homo sapiens, UniProt P51686); binder, NanoBRET; HEK293T): 0.0474 ± 0.0045 µM
Cc1c[nH]c2nccc(-c3ccc(C(=O)N[C@@H]4c5c(F)cc(C(F)F)cc5C[C@@H]4O)cn3)c12  Kd (Ribosomal protein S6 kinase alpha-6, N-terminal kinase domain (RPS6KA6, Homo sapiens, UniProt Q9UK32); binding, competition with immobilised ligand): 0.245 µM
